Measured values of several laboratories.
Each numbered part is a random draw from the data of one study; scales do not carry over between parts. Positions count from the first letter of the parent shown.

Sample 1 — target: CCNF, cyclin fold, Cln2 fusion (human); technique: yeast growth competition, sequencing; matrix: yeast; notes: strong parent motif; relative to: not given; direction: higher = stronger binding; quantity: normalised enrichment score
Starting sequence: E2F3 docking peptide (human); PPAKRRLELGESG; partner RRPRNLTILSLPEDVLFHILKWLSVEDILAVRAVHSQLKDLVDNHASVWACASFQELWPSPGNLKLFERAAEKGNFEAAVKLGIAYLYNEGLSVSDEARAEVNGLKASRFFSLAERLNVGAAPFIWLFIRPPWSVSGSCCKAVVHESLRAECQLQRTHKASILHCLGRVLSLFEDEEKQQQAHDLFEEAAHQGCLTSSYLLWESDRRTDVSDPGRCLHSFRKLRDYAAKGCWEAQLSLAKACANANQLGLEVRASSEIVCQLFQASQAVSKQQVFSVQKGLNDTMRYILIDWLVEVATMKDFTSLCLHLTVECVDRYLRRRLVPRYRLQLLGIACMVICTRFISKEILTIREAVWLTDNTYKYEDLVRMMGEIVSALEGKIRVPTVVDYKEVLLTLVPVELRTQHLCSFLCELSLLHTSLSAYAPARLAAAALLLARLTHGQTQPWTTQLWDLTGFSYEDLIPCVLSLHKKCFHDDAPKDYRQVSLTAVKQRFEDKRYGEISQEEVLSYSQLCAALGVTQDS
PPAKRRLELGEAG [S12A]: 7.25
PPAKRRLELAESG [G10A]: 6.79
PPAKARLELGESG [R5A]: 0.65
PPAKRRLEAGESG [L9A]: 0.997
PPAKRALELGESG [R6A]: 3.41
PPAKARAELGESG [R5A L7A]: 0.172
PPAKRRLEFGESG [L9F]: 7.62
PPAKKRLEFGESG [R5K L9F]: 7.48
PPAKRRLELGESA [G13A]: 6.58

Sample 2 — technique: RNA Bind-n-Seq; form: RNA; matrix: in vitro; tested at: 1 µM; notes: whole 134-nt RNA, ends assumed; with: 150 mM KCl; relative to: input library; direction: higher = stronger binding; quantity: log2 enrichment
Target: Ras GTPase-activating protein-binding protein 1, RRM domain (G3BP1, Homo sapiens, UniProt Q13283)
Chain of UniProt Q13283 (whole entry, looked up): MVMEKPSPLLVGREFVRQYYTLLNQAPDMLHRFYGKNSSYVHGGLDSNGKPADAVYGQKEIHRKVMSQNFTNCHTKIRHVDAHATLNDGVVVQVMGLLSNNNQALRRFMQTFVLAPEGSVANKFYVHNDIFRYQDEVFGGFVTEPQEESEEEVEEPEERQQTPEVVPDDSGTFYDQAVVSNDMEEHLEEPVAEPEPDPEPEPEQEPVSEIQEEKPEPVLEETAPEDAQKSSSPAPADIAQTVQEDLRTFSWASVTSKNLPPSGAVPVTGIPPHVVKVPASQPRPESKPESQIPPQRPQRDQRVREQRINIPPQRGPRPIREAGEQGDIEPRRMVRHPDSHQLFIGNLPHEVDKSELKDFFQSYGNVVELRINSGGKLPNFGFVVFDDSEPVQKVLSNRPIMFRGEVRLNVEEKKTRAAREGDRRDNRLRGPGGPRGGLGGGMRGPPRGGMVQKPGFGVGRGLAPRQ
All sequences stand within: GGGAGUUCUACAGUCCGACGAUC … UGGAAUUCUCGGGUGUCAAGG
UCCUGUGCUACACAUCGUAUGUACCGAAUCGGGGUUUUUGGGGUUUUUGGGGUUUUUGGAAAGUAUUAUGUUACGCCGUUCGGAUCUGCA: -0.0885
AGUCCUGUGCUACACAUCGUAUGUACCGAAUCGGCCCCCGGGCCCCCGGCCCCCGGGGAAAGUAUUAUGUUACGCCGUUCGGAUCUGCAC: -0.545
AAGUCCUGUGCUACACAUCGUAUGUACCGAAUCGGAAAAGGAAAAGGGGAAAAGGGGAAAGUAUUAUGUUACGCCGUUCGGAUCUGCACU: -0.0343
GGUGGACUAUGGUGCAACAGCAGAAGAGCUGGAAGCUCACUUUCAUGGCUGUGGUUCAGUCAACCGUGUUACCAUACUGUGUGACAAAUU: -0.193
UGUGUGCAUUCCCUGCGCCAAGGGCUUCCCCAGCUCUGAGCAGCUCAAUGCGCACGUGGAGACUCACACGGAGGAAGAGCUGUUCAUCAA: -0.271
UGUGCUACACAUCGUAUGUACCGAAUCGGGGAAAAAGGGGUUUUUUUGGGGUUUUUUUGGGGAAAGUAUUAUGUUACGCCGUUCGGAUCU: 1.17
UGGCCCUGGUGGCAUCCGGGGAGGAAGAGGUGGCCUCAUGGAUCGUGGUGGUCCCGGUGGAAUGUUCAGAGGUGGCCGUGGUGGAGACAG: 0.953
GUCCUGUGCUACACAUCGUAUGUACCGAAUCGGGUUUUUUGGUUUUUUGGUUUUUUGGGAAAGUAUUAUGUUACGCCGUUCGGAUCUGCA: -0.176
UGGCCCUGGUGGCAUGCGGGGAGGAAGAGGUGGCCUCAUGGAUCGUGGUGGUCCCGGUGGAAUGCUCAGAGGUGGCCGUGGUGGAGACAG: 0.881
CACAGACAACACGCACCCACACAGACACAGAGGGAAGGCGUUGGGAUGGGGACAGGGUGCACAGCAGGGCGGGGUAGGACCCCAGCCCCU: -0.181
UCAAGUCCUGUGCUACACAUCGUAUGUACCGAAUCGGAAAGGGAAAGGGGAAAGGAAAGUAUUAUGUUACGCCGUUCGGAUCUGCACUUC: -0.253
GCAGGAAGUAAAAACAAAUGGAAAUGCUUCGGACAGUGGCAGGGGUGGGGGUUGCUAAGGAAAGGGUGGGAUGGGAGUGGGUAAAGAGUU: 0.97
CCUGUGCUACACAUCGUAUGUACCGAAUCAAACCCCCCCAAACCCCCAAAUUUUUUUAAAAAAGUAUUAUGUUACGCCGUUCGGAUCUGC: -0.434

Sample 3 — technique: protein binding microarray; form: double-stranded DNA, one strand shown; matrix: in vitro; tested at: not given; relative to: not given; direction: higher = stronger binding; quantity: E-score
Target: Histone acetyltransferase KAT6A, winged helix 1, GST fusion (KAT6A, Homo sapiens, UniProt Q92794, residues 1-85)
Notes: 8-mer, flanks averaged, mean of 2 arrays, mostly near background
Target sequence (chain): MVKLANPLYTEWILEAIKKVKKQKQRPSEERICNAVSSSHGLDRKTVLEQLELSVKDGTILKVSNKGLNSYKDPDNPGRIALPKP
GGTAATCA: 0.128
CCCACACA: -0.173
TGCAATAA: -0.0818
CCGAAGGC: 0.0768
AGCACAAC: -0.182
GGCAACCA: 0.0409
CAAACTTG: -0.113
CAAACAGC: -0.135
ACTCGGAA: -0.0904
GAAATAGA: -0.242
ATTGGACA: -0.191
CAGCACAA: -0.148
ATTTGATG: -0.218
CTGTAGGA: -0.0158
AGCGATCG: 0.0374
CACAATGA: -0.317
GATGTACA: -0.0821

Single results of other studies
PhoQ, residues 284 288 289 292 302 303 DDMDFR
fold induction (PhoP, residues 12 14 15 18 19 SYFRT (Escherichia coli, UniProt P23836); Sort-seq, refers to: YFP reporter; E. coli; PhoQ-PhoP variant library, with: 10 µM Mg2+; relative to: high Mg2+ state, higher = stronger signaling): 0.736

Excerpt of the above (sample 3):
CAGCACAA: -0.148
ATTTGATG: -0.218
CTGTAGGA: -0.0158
AGCGATCG: 0.0374
CACAATGA: -0.317
GATGTACA: -0.0821
